Measurements pooled from the literature.
Protocols differ between the studies behind these lines. Numbers after ± are the reported error.
Chain of UniProt O14920 (whole entry, looked up): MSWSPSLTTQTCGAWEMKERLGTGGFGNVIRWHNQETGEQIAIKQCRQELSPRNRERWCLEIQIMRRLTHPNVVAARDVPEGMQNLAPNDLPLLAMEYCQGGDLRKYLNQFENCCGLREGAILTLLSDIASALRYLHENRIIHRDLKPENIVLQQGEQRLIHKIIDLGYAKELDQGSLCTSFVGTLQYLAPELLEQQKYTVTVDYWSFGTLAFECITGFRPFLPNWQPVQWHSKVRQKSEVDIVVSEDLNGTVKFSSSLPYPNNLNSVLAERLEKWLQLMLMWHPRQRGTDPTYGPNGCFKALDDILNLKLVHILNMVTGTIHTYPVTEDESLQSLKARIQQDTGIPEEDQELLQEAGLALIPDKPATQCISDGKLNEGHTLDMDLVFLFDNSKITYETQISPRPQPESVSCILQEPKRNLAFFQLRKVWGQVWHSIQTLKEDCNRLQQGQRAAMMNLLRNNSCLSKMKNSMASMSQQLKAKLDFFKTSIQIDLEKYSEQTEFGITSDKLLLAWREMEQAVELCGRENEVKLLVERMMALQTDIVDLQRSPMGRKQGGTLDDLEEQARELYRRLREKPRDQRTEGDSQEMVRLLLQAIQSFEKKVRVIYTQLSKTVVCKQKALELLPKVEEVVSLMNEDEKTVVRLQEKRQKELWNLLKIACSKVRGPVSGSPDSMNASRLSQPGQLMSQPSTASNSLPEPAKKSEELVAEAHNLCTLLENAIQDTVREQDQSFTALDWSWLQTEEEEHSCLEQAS
Chain of UniProt Q13705 (whole entry, looked up): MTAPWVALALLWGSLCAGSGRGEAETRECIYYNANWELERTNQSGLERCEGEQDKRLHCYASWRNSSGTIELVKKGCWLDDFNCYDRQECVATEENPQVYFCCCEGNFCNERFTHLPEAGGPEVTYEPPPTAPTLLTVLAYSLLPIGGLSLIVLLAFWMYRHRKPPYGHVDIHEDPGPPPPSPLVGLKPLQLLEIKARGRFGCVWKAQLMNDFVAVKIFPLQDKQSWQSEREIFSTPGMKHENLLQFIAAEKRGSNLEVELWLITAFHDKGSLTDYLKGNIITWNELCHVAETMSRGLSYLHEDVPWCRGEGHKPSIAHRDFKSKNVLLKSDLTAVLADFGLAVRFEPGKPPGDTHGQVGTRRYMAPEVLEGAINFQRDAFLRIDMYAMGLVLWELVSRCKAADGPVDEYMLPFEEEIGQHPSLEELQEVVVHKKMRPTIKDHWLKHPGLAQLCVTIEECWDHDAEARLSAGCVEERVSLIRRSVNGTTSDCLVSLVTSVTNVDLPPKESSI
Chain of UniProt P16277 (whole entry, looked up): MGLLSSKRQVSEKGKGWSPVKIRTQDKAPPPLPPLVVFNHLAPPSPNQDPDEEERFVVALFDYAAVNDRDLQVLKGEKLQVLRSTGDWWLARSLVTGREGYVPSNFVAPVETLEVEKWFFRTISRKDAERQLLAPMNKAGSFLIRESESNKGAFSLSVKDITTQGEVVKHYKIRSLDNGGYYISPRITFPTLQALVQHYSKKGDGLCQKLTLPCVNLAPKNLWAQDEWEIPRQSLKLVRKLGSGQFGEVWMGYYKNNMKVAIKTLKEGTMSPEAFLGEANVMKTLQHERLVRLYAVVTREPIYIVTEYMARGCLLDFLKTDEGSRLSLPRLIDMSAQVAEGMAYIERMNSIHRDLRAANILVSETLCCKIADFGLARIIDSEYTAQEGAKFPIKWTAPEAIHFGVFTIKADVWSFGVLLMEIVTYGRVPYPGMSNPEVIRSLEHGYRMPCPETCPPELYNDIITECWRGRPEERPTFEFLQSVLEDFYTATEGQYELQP
Chain of UniProt Q13546 (whole entry, looked up): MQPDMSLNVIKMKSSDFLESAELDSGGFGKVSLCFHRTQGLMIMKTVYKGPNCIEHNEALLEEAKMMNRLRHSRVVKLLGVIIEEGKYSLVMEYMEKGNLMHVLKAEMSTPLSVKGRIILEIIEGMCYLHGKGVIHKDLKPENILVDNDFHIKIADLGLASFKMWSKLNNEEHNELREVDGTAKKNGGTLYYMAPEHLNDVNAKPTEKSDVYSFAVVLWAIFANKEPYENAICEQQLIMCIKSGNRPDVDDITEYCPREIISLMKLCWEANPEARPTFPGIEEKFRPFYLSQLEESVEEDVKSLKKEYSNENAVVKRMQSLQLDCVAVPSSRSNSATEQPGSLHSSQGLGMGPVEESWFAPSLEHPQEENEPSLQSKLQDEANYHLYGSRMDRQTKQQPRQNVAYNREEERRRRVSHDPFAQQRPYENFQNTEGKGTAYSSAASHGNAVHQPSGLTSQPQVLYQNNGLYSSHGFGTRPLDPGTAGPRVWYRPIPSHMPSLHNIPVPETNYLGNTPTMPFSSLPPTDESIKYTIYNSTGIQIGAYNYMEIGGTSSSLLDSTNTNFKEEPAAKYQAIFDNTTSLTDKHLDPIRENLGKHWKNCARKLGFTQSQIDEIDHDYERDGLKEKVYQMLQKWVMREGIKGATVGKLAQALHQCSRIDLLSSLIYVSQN
Chain of UniProt P54764 (whole entry, looked up): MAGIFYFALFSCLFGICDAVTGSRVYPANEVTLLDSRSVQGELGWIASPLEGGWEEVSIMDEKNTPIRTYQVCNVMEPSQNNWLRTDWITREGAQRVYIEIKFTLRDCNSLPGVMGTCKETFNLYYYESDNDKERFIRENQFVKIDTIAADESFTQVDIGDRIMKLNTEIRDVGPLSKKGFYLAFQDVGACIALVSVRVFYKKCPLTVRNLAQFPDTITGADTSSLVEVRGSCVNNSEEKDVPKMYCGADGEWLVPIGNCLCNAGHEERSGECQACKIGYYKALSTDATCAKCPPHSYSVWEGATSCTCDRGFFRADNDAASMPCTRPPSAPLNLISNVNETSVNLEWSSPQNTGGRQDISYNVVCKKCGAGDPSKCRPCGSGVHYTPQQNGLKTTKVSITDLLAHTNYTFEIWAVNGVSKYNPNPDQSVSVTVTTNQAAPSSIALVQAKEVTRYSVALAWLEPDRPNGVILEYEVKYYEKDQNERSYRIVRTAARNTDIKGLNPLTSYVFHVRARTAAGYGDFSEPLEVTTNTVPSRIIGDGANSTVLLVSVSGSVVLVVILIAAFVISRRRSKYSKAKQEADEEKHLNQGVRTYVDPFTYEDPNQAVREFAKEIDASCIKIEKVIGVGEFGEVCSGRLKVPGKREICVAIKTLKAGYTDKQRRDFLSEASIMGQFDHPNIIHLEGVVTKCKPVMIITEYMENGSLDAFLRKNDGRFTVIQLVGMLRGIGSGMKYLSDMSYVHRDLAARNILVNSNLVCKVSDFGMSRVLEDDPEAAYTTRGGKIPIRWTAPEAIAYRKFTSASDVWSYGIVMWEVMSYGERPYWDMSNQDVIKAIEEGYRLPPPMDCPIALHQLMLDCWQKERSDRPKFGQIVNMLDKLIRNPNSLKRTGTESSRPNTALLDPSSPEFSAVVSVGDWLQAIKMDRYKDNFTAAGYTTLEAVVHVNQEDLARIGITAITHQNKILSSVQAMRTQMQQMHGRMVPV
Chain of UniProt Q96KB5 (whole entry, looked up): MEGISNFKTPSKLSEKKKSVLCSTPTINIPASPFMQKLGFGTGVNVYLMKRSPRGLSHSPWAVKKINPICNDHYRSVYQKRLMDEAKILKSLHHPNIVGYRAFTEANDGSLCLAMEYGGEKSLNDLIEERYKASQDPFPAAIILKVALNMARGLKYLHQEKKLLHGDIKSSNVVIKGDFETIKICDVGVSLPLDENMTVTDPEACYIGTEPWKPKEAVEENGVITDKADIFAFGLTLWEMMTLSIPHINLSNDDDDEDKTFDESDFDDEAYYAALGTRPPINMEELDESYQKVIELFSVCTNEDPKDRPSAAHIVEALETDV
Chain of UniProt P48067 (whole entry, looked up): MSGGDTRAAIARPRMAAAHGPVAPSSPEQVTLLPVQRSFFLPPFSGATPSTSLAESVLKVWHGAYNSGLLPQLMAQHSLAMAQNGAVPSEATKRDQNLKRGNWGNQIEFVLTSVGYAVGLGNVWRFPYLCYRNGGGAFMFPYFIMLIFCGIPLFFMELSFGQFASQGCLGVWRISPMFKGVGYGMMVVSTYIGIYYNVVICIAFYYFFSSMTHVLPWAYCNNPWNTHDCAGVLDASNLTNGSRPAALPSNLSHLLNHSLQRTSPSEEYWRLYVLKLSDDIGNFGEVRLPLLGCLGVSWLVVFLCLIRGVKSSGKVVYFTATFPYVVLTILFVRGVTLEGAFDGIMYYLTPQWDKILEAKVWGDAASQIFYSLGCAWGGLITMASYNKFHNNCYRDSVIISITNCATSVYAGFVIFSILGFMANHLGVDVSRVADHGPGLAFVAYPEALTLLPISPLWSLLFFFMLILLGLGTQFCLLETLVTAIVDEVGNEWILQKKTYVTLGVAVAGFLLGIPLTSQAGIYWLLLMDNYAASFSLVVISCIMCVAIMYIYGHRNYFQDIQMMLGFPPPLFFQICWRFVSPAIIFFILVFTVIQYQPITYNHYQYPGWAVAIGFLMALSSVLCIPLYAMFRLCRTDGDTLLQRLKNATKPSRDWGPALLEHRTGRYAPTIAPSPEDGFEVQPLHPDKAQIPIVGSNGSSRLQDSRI
Chain of UniProt P22310 (whole entry, looked up): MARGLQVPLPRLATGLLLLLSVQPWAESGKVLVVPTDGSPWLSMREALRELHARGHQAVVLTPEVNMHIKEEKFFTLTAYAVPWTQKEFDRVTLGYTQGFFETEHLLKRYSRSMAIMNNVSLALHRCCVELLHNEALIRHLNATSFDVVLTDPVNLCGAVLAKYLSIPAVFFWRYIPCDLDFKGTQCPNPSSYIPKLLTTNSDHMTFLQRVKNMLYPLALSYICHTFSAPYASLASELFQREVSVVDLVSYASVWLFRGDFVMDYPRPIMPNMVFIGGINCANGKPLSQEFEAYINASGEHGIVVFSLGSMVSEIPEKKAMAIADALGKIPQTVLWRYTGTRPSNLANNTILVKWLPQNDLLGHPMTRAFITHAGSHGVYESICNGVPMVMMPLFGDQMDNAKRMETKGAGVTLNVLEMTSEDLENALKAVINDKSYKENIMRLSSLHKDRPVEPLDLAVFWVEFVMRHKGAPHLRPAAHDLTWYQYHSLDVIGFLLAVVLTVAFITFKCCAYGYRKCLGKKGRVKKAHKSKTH

SMILES | target or system | test | system | setting | scale | endpoint | value
COC(=O)c1cn(C)c2ccc(-c3cccnc3)cc12 | COS-7 | – | – | 30 µM, 24 h, 0.1% DMSO, unit not given | baseline: vehicle control | apoptotic cells | 1.16 ± 0.46
O=C1NC(=O)/C(=C/c2ccc(-c3ccc(F)cc3O)o2)S1 | Inhibitor of nuclear factor kappa-B kinase subunit beta (IKBKB, Homo sapiens, UniProt O14920) | enzyme activity | – | 10 µM | – | remaining activity | 73%
Cc1cc(Nc2cc(N3CCN(C)CC3)nc(Sc3ccc(NC(=O)C4CC4)cc3)n2)[nH]n1 | Tyrosine-protein kinase Blk (Blk, Mus musculus, UniProt P16277) | kinase activity, KinaseProfiler | – | 0.03 µM, species mouse | baseline: control | remaining activity | 88%
COc1cc(-c2cncc3c2CN(C)Cc2cc(N4CCNCC4)ccc2-3)cc(OC)c1OC | Receptor-interacting serine/threonine-protein kinase 1 (RIPK1, Homo sapiens, UniProt Q13546) | kinase activity | – | 1 µM, human enzyme, together with: ATP 10 µM | baseline: DMSO control | remaining activity | 108%
O=C(NC1CCC1)c1ccc2nc(-c3cccc(NS(=O)(=O)NCCN4CCCCC4)c3)cn2c1 | Activin receptor type-2B (ACVR2B, Homo sapiens, UniProt Q13705) | enzyme activity | – | 10 µM | – | remaining activity | 100%
CNc1ncc2c(/C=C/C(=O)N3CCC(OC)CC3)nn(Cc3cccc(C(F)(F)F)c3)c2n1 | Lymphokine-activated killer T-cell-originated protein kinase (PBK, Homo sapiens, UniProt Q96KB5) | kinase activity, inhibitor | – | 1 µM | baseline: untreated control | remaining activity | 86%
COc1cc(F)ccc1-c1ncnc(Nc2cccc(C[S@](C)(=N)=O)c2)n1 | Serine/threonine-protein kinase MARK2 (MARK2, Homo sapiens, UniProt Q7KZI7) | kinase activity | – | 10 µM, together with: 10 µM ATP | – | remaining activity | 83%
O=c1cc(-c2ccc(O)c(-c3c(O)cc(O)c4c(=O)cc(-c5ccc(O)cc5)oc34)c2)oc2cc(O)cc(O)c12 | UDP-glucuronosyltransferase 1A4 (UGT1A4, Homo sapiens, UniProt P22310) | glucuronidation, inhibitor | human liver microsomes | 100 µM, together with: probe substrate 50 µM | baseline: no inhibitor | remaining activity | ~10%
CCC(=O)NS(=O)(=O)c1ccc(-c2c(-c3ccccc3)noc2C)cc1 | COS-7 | – | – | 50 µM, 24 h, 0.1% DMSO, unit not given | baseline: vehicle control | confluence | 0.91 ± 0.04
O=C(O)c1ccc(Nc2ncc3c(n2)-c2ccc(Cl)cc2C(c2c(F)cccc2F)=NC3)cc1 | p70S6K(h) | kinase activity | – | 1 µM | – | remaining activity | 94%
CNCC(=O)O | Sodium- and chloride-dependent glycine transporter 1 (SLC6A9, Homo sapiens, UniProt P48067) | [3H]glycine uptake, inhibitor | HEK293F | 2000 µM, together with: methyl-β-cyclodextrin 3.5 mg/mL | baseline: untreated | remaining activity | 60.6%
C=CC(=O)N1CCC[C@@H](n2nc(-c3ccc(Oc4ccccc4)cc3)c3c(N)ncnc32)C1 | Ephrin type-A receptor 4 (EPHA4, Homo sapiens, UniProt P54764) | – | – | 1 µM | – | remaining activity | 116%
COc1cc(Nc2ncc3c(n2)-c2ccc(Cl)cc2C(c2c(F)cccc2OC)=NC3)ccc1C(=O)O | PRKCA | kinase activity | – | 1 µM | – | remaining activity | 115%
